Measurements of several laboratories.
Every numbered part comes from another study and shows a few of its results, in no order.

Sample 1
Target: Sal-like protein 4, full length isoform B (SALL4, Homo sapiens, UniProt Q9UJQ4-2, residues 1-616)
Technique: universal PBM
Form: double-stranded DNA, one strand shown
Medium: in vitro
Concentration: not given
Notes: 8-mer, flanks averaged, mean of replicates
Reading: higher = stronger binding
For `TTCTGAAA`, the E-score was 0.224.
`ATGTAATC` gave an E-score of 0.265.
With `AGACTACA` the E-score was 0.0619.
`AGGCTCAA` has an E-score of -0.0563.
With `CGCGCGTC` the E-score was -0.162.
With `CTGTACAA` the E-score was 0.181.
For `CACCCCGA`, the E-score was -0.0996.
The E-score of `ACTAATTA` is reported as 0.369.
`GGGTCCTA` has an E-score of -0.2.
For `GCCTAGAC`, the E-score was -0.201.
For `AGCTCTTG`, the E-score was -0.172.
`TAATAACA` has an E-score of 0.403.
The E-score of `ATTCTGGC` is reported as -0.123.
For `CCGGGGCA`, the E-score was -0.371.
`TGCACCAA` gave an E-score of -0.136.
For `AATCCTTC`, the E-score was 0.0781.
For `CTTCCGGA`, the E-score was -0.225.
`CTCCATTA` has an E-score of 0.178.
`ACAGGGTA` gave an E-score of -0.0926.
The E-score of `ACACGCGG` is reported as -0.217.
The E-score of `CATGTCCC` is reported as -0.114.
For `TGACCTCA`, the E-score was -0.0783.
For `CAACGCGG`, the E-score was -0.284.
With `ATGGGTTG` the E-score was -0.0489.
`CAATCTCC` gave an E-score of -0.0853.

Sample 2
Target: Ras GTPase-activating protein-binding protein 1, C-terminal RGG region (G3BP1, Homo sapiens, UniProt Q13283)
Sequence of UniProt Q13283 (whole entry, looked up): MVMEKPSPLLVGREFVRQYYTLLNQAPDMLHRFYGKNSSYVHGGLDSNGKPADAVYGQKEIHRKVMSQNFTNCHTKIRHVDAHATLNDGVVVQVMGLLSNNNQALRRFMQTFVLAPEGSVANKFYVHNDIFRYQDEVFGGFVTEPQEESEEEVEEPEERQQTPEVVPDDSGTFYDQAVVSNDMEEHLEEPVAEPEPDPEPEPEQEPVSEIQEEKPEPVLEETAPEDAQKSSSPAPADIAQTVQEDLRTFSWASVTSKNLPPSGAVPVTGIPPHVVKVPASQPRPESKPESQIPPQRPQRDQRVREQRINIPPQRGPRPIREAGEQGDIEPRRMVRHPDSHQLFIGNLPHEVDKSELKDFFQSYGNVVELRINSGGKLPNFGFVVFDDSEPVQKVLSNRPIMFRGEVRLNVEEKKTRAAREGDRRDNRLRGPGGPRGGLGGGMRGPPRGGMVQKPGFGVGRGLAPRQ
Technique: RNA Bind-n-Seq
Form: RNA
Medium: in vitro
Concentration: 1 µM
Notes: whole 134-nt RNA, ends assumed
With: 150 mM KCl
Relative to: input library
Reading: higher = stronger binding
`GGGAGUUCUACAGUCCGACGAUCUGCCUUGCAGAUACGUGGCUUUCCUGAAGCUGUUCCUGGAGACGGCGGAGAAGCACUUCAUGGUGGGCCACCGUGUCCACUACUAUGUCUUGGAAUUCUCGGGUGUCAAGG` gave a log2 enrichment of -0.99.
`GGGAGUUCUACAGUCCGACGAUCCUCAAGUCCUGUGCUACACAUCGUAUGUACCGAAUCGGGAAAGGGAGGGAGGGAAAGUAUUAUGUUACGCCGUUCGGAUCUGCACUUCCAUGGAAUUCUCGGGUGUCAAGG` gave a log2 enrichment of 2.07.
`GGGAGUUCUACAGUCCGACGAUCUCAAGUCCUGUGCUACACAUCGUAUGUACCGAAUCGGGGAGGGGUGGGGAGGGGAAAGUAUUAUGUUACGCCGUUCGGAUCUGCACUUCCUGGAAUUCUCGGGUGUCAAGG` gave a log2 enrichment of 3.17.
For `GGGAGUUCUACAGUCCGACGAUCGUCCUGUGCUACACAUCGUAUGUACCGAAUCGGGUUUGGGUUUUUUUGGGUUUUUGGGAAAGUAUUAUGUUACGCCGUUCGGAUCUGCACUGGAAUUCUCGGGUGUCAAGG`, the log2 enrichment was 0.334.
`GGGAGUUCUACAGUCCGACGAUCCAAGUCCUGUGCUACACAUCGUAUGUACCGAAUCGGAAAGGGGAAAGGGAAAGGGAAAGUAUUAUGUUACGCCGUUCGGAUCUGCACUUCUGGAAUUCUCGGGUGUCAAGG` has a log2 enrichment of 0.0402.
For `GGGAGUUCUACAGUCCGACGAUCCUCAAGUCCUGUGCUACACAUCGUAUGUACCGAAUCGGGGAAGGGGAAGGAAGGAAAGUAUUAUGUUACGCCGUUCGGAUCUGCACUUCCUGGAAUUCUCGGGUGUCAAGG`, the log2 enrichment was -1.22.
`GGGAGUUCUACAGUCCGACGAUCCACAGACAACACGCACCCACACAGACACAGAGGGAAGGGGUUGGGAUGGGGACAGGGUACACAGCAGGGCGGGGUAGGACCCCAGCCCCUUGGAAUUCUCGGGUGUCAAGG` has a log2 enrichment of -0.296.
For `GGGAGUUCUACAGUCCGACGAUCUGGCAGGAAAGAGUUCCUAGAGAGAGAAGACAAAGACAGUCUGUGUUGCAAAAGAAGCCCAAGGCUGAAGAUUUAAGAACUGAAUGUGCAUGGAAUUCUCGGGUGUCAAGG`, the log2 enrichment was -1.79.
The log2 enrichment of `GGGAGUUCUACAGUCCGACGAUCUCCUGUGCUACACAUCGUAUGUACCGAAUCGGUUUUUUUGGGUUUUUUUGGUUUUUUUGGAAAGUAUUAUGUUACGCCGUUCGGAUCUGCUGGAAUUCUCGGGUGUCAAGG` is reported as -0.466.

Sample 3
Target: RNA binding protein fox-1 homolog 2, RRM domain, GST-SBP tag (RBFOX2, Homo sapiens, UniProt O43251-10, residues 100-194)
Technique: RNA Bind-n-Seq
Form: RNA
Medium: in vitro
Concentration: 365 nM
Notes: natural RNA segment, single round, ends assumed
Relative to: no-protein control
Reading: higher = stronger binding
Target sequence (chain): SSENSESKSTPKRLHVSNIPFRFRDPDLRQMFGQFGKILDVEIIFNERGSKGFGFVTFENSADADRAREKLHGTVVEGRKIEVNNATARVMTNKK
Under “RBNS enrichment (R)”, `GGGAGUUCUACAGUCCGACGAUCCUUUAUGCCAAAUGUCUUGCAGAUGUUAUUUUUAAACUUAACUGAAUUUUUACAAAUAUAAAAAGGAAAAAGUAUAUUAGUGUAAUUUGUUUAGGAAUAGCUACAUACCGUGGAAUUCUCGGGUGCCAA` is recorded as 1.2.
`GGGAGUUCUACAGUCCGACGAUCAGCUUUGGAUUGUGCAUUCCUAGGCACAAAAUUACCUCAUUCUUCCUAACAAGCAAUCUGGGACCUGAUUUUCCACCUUUUUUCUCUUUUCUUCCCUUCCUUUGUUUUCAUGGAAUUCUCGGGUGCCAA` — result for “RBNS enrichment (R)”: 1.09.
`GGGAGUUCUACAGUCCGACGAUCUUAUAGAGACUCUAAGUCUAAAUUUUAAUUUCUUUGUAAAAACCUCAAAAGUGAGGAAAAUGGAUGUUUUAAAAUGGUAUUUUCAAUUUUUUAUAAGCAAAAUUUUGUAUUGGAAUUCUCGGGUGCCAA`: “RBNS enrichment (R)” 1.2.
`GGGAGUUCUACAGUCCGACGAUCUUCCUGGGGUCCUAAUUAACUCGGCCUACUCAAUGAGAACGUAACAUGCUUAUUGAAUGUAUAGCCGUGUUUGCUGAGUAACCUGUCCCACCGUUGAGGCUAUCUGAAGUUGGAAUUCUCGGGUGCCAA`: “RBNS enrichment (R)” 0.362.
`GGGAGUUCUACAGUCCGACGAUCUUACAGUGGCAUGAUGGUGACCUGUGCAGUCACUGAGCUGUAGGAGUGAGGCAUGUGCUGCACGUCCCUGUCGUACUUAGAGACCUGGCCGGUGCCCUGCGCGGGGCCUCUGGAAUUCUCGGGUGCCAA` — result for “RBNS enrichment (R)”: 38.
`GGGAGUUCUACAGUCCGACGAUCAAUCAAGGACAAUGAAGCCUCACCAAUAUAUUUCUUGUGGUGCUGGGAUCAAACCCAGGACAGCAUUCAUCCUAGGCAAAUGCUGGACCAUACCCUCAGCCCAUCACCAAUGGAAUUCUCGGGUGCCAA`: “RBNS enrichment (R)” 0.24.
Under “RBNS enrichment (R)”, `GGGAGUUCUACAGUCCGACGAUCGACCACAUCGGUGUAGCAUUGACCUCCGAGUUUUACCUGCUGUGUCUUCCCUGCUGUAGAGAUGUUCCUGUGCACCUGAGGAGCCUCCUGCCUGCCGUCCUUGCGUCCACUGGAAUUCUCGGGUGCCAA` is recorded as 3.09.
For `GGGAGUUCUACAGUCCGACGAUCAGAAUUUAUAAAUCACAUCUCAUCAAUACUAACAAAUGACAUUUUGAAAGGAAAGAUUGGGUUGCAUAGUCAUAGUACAUGAAUCCAAUCAAAGAUGAUACAAUAUUUCCUGGAAUUCUCGGGUGCCAA`, “RBNS enrichment (R)” read 0.336.

Sample 4
Target: Centromere-binding protein 1, full length, N-terminal tag (CBF1, Saccharomyces cerevisiae, UniProt P17106, residues 1-351)
Sequence of UniProt P17106 (whole entry, looked up): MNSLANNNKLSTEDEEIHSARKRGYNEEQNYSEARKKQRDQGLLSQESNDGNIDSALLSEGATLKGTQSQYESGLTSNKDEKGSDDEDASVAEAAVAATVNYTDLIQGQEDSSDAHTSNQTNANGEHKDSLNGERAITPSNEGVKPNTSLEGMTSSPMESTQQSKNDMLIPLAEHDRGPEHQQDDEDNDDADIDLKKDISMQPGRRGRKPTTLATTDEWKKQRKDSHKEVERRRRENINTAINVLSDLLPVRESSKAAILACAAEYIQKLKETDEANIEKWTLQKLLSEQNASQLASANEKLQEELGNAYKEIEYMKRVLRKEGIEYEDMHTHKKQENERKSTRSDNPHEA
Technique: protein-binding microarray
Form: double-stranded DNA, one strand shown
Medium: in vitro
Concentration: 0.8 µM
Notes: whole 60-bp probe, no competitor
Reading: higher = stronger binding
`CTAATATAGTTACATGTGATGAATGTATGGACATTCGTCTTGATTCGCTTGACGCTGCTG` has a fluorescence intensity of 2520 a.u.
`CCTAACTACTATAGCCACGTGAAATAGCTTCGTACAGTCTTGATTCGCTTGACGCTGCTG` has a fluorescence intensity of 2230 a.u.
`GAACTCTATTTTTGGGTACACGTGCGTGTTTCTTAGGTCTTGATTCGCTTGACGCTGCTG` gave a fluorescence intensity of 5850 a.u.
The fluorescence intensity of `GAATCGGTTTATTGTCTCGTGGTCATTTGCGTTTAGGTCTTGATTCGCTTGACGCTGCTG` is reported as 1050 a.u.
For `GAAACTACTTTGTATCACGCTTGTGCTAACATCTAGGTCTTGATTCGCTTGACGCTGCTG`, the fluorescence intensity was 570 a.u.
With `CTAAATTGCCTTAGCCACGTAATATGTGCCTTTTTCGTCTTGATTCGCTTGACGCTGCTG` the fluorescence intensity was 503 a.u.
The fluorescence intensity of `CTAATTACTATTGCGTACATCAGCAATCATCCATTCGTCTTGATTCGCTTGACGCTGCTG` is reported as 534 a.u.
For `CTAACGCCAGAGCTTCATGAGACCAAGGAAGGATTCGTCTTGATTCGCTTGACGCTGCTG`, the fluorescence intensity was 523 a.u.
With `GAAAGGATGCTGAATGTCACCTCTTGCAACAAATAGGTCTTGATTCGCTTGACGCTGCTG` the fluorescence intensity was 543 a.u.
`CTAATCGTTCTCCGTGAGGTGGATTTACTGTTATTCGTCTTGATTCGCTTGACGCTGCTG` has a fluorescence intensity of 509 a.u.
`GAACTCTTTCCATCTGCCGTGACAGGGAAGCCTTAGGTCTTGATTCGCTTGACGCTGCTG` gave a fluorescence intensity of 569 a.u.
With `GAATGTAAACTGTATCACGCATACTTTTTGCTGTAGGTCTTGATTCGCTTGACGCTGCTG` the fluorescence intensity was 650 a.u.
`CTAATATTGACGCCAAGCGTGCGTCTGATTTCTTTCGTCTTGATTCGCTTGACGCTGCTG` gave a fluorescence intensity of 518 a.u.
`GAAGGCCTAAAACTGGTGGTGACAGCTGAAGTGTAGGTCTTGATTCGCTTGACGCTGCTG` has a fluorescence intensity of 478 a.u.
The fluorescence intensity of `GAACCATCTTTCACTTATCTGATGTTCCTGATTTAGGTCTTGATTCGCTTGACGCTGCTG` is reported as 784 a.u.
For `TGTACGAAGCTATGGCATGTGCATATAGTAGTTAGGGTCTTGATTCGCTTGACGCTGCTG`, the fluorescence intensity was 655 a.u.
`GAATAGTTCTAGCGACACGTCCTATTCATATATTAGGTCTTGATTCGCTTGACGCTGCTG` has a fluorescence intensity of 508 a.u.
`GAAGTATGAGAAGATGGGGTGAAGTAAAAGCGTTAGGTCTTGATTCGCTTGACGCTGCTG` gave a fluorescence intensity of 531 a.u.
`CTATACTTTTAATATCACGATGCTGTCTCTGAATTCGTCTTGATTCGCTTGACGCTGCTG` has a fluorescence intensity of 732 a.u.

Excerpt of the above (sample 1):
The E-score of `CATGTCCC` is reported as -0.114.
`ATGTAATC` gave an E-score of 0.265.
For `CAACGCGG`, the E-score was -0.284.
`AGGCTCAA` has an E-score of -0.0563.
The E-score of `ATTCTGGC` is reported as -0.123.
